Assay results collected from several papers.
Compare with care: the assays were run in different laboratories. ± marks the error that the study gave.
B1: UGT1A9 (Homo sapiens, UniProt O60656); chain GKLLVVPMDGSHWFTMRSVVEKLILRGHEVVVVMPEVSWQLGRSLNCTVKTYSTSYTLEDLDREFKAFAHAQWKAQVRSIYSLLMGSYNDIFDLFFSNCRSLFKDKKLVEYLKESSFDAVFLDPFDNCGLIVAKYFSLPSVVFARGILCHYLEEGAQCPAPLSYVPRILLGFSDAMTFKERVRNHIMHLEEHLLCHRFFKNALEIASEILQTPVTEYDLYSHTSIWLLRTDFVLDYPKPVMPNMIFIGGINCHQGKPLPMEFEAYINASGEHGIVVFSLGSMVSEIPEKKAMAIADALGKIPQTVLWRYTGTRPSNLANNTILVKWLPQNDLLGHPMTRAFITHAGSHGVYESICNGVPMVMMPLFGDQMDNAKRMETKGAGVTLNVLEMTSEDLENALKAVINDKSYKENIMRLSSLHKDRPVEPLDLAVFWVEFVMRHKGAPHLRPAAHDLTWYQYHSLDVIGFLLAVVLTVAFITFKCCAYGYRKCLGKKGRVKKAHKSKTH
B2: adiponectin; sequence looked up; chain ETTTQGPGVLLPLPKGACTGWMAGIPGHPGHNGAPGRDGRDGTPGEKGEKGDPGLIGPKGDIGETGVPGAEGPRGFPGIQGRKGEPGEGAYVYRSAFSVGLETYVTIPNMPIRFTKIFYNQQNHYDGSTGKFHCNIPGLYYFAYHITVYMKDVKVSLFKKDKAMLFTYDQYQENNVDQASGSVLLHLEVGDQVWLQVYGEGERNGLYADNDNDSTFTGFLLYHDTN

Molecule	target or system	assay	test system	conditions	how to read	measurement	value
LRRFSTMPFMFGNINNVGNF	HUVEC	cell migration, real-time cell analysis	peptide	50 µM, together with: full medium chemoattractant	relative to: vehicle	inhibition	87.9 ± 0.7%
VEGF	HUVEC		Matrigel	10 ng/mL, 5 min bolus then 8 h washout	relative to: control media	tube length	1.2 fold
COc1ccc(CS(=O)(=O)c2ccc3ccccc3c2)cc1N	HUVEC	cell growth or viability, MTS		48 h		IC50	0.416 µM
LRRFSTMPFMFVNINNVVNF	HUVEC	cell proliferation, WST-1	peptide	100 µM, 72 h	relative to: vehicle	inhibition	62.2 ± 0.64%
COC(=O)c1ccc(Cn2cc(CCOc3c(OC)ccc4cc5[n+](cc34)CCc3cc4c(cc3-5)OCO4)nn2)cc1	HUVEC	cell growth or viability, MTT				IC50	48.9 µM
COc1ccc(CSc2ccc3ccccc3c2)cc1N	HUVEC	cell growth or viability, MTS		48 h		IC50	90.4 µM
LRRFSTMPFMFTNINNVTNF	HUVEC	cell migration, real-time cell analysis	peptide	50 µM, together with: full medium chemoattractant	relative to: vehicle	inhibition	96.08 ± 0.15%
B1 (UGT1A9)	O=c1c(O)c(-c2cccc(O)c2)oc2cc(O)ccc12	steady-state kinetics		pH 7.4, 37 °C		Vmax	0.000764 µmol/min/mg
COc1ccc2cc3[n+](cc2c1OCCc1cn(Cc2cccc(C(F)(F)F)c2)nn1)CCc1cc2c(cc1-3)OCO2	HUVEC	cell growth or viability, MTT				IC50	42.6 µM
COc1ccc(CS(=O)(=O)c2ccc3cc(Br)ccc3c2)cc1N	HUVEC	cell growth or viability, MTS		48 h		IC50	1.82 µM
COc1ccc2cc3[n+](cc2c1OCCc1cn(Cc2ccc(Cl)c(Cl)c2)nn1)CCc1cc2c(cc1-3)OCO2	HUVEC	cell growth or viability, MTT				IC50	15.7 µM
COc1ccc(C[S+]([O-])c2ccc3ccccc3c2)cc1NCC(=O)O (stereo not shown)	HUVEC	cell growth or viability, MTS		48 h		IC50	6.77 µM
B2 (adiponectin)	HUVEC	PBL transendothelial migration, inhibitor		1 h pretreatment, static, together with: TNF-α and IFN-γ		EC50	0.0026 µM

Repeated from above:
Molecule	target or system	assay	test system	conditions	how to read	measurement	value
COc1ccc(CS(=O)(=O)c2ccc3ccccc3c2)cc1N	HUVEC	cell growth or viability, MTS		48 h		IC50	0.416 µM
LRRFSTMPFMFVNINNVVNF	HUVEC	cell proliferation, WST-1	peptide	100 µM, 72 h	relative to: vehicle	inhibition	62.2 ± 0.64%
